{"data": "Measurements from different studies", "PRKD1": "Serine/threonine-protein kinase D1 (PRKD1, Homo sapiens, UniProt Q15139)", "CDC42BPA": "Serine/threonine-protein kinase MRCK alpha (CDC42BPA, Homo sapiens, UniProt Q5VT25)", "CDK2 with cyclin A2": "Cyclin-dependent kinase 2, with cyclin A2 (CDK2, Homo sapiens, UniProt P24941)", "SRMS": "Tyrosine-protein kinase Srms (SRMS, Homo sapiens, UniProt Q9H3Y6)", "DCLK2": "Serine/threonine-protein kinase DCLK2 (DCLK2, Homo sapiens, UniProt Q8N568)", "CDK2": "Cyclin-dependent kinase 2 (CDK2, Homo sapiens, UniProt P24941)", "note": "Compare with care: the assays were run in different laboratories. Numbers after ± are the reported error.", "sequence of UniProt Q8N568 (whole entry, looked up)": "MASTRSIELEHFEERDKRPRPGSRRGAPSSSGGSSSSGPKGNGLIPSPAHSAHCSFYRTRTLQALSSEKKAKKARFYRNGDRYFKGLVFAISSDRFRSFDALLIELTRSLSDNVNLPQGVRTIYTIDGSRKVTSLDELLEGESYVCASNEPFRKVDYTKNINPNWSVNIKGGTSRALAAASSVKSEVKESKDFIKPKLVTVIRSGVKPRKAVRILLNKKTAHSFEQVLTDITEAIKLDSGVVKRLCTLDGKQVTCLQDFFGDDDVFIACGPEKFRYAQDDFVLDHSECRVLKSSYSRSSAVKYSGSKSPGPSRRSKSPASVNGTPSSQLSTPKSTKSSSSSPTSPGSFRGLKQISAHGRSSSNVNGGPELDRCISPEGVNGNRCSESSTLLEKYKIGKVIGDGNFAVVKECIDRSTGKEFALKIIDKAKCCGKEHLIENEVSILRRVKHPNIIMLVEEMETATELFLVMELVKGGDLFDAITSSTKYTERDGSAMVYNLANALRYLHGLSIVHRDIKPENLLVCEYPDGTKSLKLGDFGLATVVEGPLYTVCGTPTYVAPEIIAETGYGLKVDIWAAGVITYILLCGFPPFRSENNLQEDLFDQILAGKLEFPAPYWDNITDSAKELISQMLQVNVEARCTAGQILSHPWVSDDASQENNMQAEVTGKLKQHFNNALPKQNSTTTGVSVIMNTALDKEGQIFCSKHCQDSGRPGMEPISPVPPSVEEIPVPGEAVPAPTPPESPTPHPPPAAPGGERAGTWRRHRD", "sequence of UniProt Q15139 (whole entry, looked up)": "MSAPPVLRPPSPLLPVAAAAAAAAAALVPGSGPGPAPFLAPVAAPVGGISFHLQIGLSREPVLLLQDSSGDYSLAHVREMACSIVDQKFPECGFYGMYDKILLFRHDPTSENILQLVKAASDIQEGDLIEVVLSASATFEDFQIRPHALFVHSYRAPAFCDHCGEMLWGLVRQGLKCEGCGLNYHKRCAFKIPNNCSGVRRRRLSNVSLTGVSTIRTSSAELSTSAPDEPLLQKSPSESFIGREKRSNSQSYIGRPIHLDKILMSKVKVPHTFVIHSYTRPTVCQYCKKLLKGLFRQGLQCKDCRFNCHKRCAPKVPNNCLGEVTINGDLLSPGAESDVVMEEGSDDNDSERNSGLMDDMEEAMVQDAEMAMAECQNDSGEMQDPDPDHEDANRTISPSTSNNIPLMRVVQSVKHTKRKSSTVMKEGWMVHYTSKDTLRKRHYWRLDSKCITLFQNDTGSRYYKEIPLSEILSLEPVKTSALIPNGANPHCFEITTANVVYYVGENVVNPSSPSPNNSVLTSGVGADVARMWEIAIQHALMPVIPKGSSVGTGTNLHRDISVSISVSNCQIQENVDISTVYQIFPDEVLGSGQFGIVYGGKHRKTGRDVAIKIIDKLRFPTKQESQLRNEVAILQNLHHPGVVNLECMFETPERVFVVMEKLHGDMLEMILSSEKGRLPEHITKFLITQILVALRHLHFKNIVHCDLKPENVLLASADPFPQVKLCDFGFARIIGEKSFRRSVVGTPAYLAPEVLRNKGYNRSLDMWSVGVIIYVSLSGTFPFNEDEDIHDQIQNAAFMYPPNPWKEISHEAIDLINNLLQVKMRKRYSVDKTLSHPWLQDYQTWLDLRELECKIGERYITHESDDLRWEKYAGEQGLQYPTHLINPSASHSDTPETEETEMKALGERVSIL", "sequence of UniProt Q9H3Y6 (whole entry, looked up)": "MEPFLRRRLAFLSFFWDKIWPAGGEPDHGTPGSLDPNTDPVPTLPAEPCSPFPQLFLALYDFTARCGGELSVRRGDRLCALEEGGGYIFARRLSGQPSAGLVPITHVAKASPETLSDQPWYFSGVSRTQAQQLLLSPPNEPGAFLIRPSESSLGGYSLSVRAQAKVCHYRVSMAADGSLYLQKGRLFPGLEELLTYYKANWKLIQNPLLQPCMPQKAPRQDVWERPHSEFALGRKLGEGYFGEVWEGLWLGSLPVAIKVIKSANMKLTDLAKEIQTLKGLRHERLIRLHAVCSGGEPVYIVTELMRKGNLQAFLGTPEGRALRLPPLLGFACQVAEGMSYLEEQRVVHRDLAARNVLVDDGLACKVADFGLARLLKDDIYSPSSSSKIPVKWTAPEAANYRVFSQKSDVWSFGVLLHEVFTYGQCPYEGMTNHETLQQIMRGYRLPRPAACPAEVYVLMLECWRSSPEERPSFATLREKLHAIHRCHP", "sequence of UniProt Q5VT25 (whole entry, looked up)": "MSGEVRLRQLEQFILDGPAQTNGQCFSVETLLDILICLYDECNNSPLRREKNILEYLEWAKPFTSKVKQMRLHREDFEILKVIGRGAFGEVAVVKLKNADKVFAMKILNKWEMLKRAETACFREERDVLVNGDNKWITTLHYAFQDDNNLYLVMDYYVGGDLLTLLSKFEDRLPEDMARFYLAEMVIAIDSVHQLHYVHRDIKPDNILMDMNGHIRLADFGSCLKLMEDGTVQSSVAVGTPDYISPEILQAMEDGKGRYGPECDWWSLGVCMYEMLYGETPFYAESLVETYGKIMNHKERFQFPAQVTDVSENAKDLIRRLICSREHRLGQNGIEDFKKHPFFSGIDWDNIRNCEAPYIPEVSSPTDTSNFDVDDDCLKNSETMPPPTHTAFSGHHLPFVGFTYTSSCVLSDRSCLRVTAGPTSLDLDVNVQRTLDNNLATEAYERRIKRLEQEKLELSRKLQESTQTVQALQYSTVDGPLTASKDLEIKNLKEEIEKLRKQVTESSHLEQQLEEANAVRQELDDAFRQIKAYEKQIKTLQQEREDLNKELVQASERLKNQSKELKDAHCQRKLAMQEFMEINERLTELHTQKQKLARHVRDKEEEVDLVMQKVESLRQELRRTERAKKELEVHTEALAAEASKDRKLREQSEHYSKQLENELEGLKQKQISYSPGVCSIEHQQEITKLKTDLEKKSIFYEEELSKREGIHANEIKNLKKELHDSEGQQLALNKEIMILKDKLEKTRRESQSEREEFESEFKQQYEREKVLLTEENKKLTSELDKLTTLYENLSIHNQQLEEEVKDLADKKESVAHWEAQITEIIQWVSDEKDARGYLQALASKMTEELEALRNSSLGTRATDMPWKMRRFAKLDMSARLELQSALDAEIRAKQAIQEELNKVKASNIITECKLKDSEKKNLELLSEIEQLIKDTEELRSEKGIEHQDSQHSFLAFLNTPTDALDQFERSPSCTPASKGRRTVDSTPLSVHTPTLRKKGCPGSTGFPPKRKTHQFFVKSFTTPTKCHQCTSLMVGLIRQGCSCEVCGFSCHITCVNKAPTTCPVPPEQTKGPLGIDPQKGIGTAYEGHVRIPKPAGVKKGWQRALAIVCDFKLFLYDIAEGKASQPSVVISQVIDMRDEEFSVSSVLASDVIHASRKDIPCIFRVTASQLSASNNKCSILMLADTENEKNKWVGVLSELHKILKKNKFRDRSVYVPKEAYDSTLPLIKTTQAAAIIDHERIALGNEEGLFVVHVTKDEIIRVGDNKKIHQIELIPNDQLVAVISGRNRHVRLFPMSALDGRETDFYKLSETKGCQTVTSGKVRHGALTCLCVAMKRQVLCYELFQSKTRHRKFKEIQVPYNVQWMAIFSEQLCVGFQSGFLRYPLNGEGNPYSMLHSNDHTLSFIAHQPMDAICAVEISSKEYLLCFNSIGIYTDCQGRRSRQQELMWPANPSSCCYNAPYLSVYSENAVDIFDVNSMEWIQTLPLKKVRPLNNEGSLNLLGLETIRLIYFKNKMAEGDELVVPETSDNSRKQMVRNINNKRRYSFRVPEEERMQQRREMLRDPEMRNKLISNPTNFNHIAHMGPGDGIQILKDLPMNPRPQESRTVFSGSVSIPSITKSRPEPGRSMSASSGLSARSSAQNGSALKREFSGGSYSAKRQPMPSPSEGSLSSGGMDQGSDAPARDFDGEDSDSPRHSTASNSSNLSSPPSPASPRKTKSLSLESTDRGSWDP", "sequence of UniProt Q9P2Y5 (whole entry, looked up)": "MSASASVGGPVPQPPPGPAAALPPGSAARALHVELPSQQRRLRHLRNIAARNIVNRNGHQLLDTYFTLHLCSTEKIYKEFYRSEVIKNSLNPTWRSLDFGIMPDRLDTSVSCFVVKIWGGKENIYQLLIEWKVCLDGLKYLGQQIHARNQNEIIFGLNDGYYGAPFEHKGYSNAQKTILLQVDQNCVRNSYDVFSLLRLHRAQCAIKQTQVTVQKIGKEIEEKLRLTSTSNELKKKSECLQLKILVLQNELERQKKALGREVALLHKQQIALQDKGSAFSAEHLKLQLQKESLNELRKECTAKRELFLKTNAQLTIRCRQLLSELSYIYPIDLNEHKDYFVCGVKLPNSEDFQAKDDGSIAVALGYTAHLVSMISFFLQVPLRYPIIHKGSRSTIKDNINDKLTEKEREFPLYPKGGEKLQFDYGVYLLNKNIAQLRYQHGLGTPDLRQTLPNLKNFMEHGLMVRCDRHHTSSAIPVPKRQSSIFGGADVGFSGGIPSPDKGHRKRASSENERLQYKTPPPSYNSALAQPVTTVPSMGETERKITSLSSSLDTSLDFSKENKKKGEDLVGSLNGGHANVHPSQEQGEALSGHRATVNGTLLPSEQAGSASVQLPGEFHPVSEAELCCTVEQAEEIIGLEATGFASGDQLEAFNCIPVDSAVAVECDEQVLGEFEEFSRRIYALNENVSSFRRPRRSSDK", "sequence of UniProt Q13557 (whole entry, looked up)": "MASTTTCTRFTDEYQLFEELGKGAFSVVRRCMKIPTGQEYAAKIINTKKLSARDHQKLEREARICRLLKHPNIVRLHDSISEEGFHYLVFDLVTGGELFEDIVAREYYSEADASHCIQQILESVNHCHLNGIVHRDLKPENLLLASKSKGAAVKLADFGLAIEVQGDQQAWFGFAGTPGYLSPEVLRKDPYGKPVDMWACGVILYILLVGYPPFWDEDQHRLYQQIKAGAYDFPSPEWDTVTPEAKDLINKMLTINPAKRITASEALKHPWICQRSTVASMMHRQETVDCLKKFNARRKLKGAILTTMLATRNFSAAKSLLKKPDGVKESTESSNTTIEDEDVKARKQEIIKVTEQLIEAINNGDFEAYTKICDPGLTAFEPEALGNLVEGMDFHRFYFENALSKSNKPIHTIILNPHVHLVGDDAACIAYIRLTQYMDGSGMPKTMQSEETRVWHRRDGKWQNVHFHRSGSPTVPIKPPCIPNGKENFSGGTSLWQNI"}
{"SMILES": "COc1cc(-c2cncc3c2CN(C)Cc2cc(N4CCNCC4)ccc2-3)cc(OC)c1OC", "target or system": "PRKD1", "assay": "kinase activity", "conditions": "1 µM, human enzyme, together with: ATP 10 µM", "how to read": "baseline: DMSO control", "endpoint": "remaining activity", "result": "107%"}
{"SMILES": "Nc1ncc2c(n1)-c1c([nH]c3ccc(-c4ccc(F)cc4)cc13)CCC2", "target or system": "TSSK2 (Homo sapiens, UniProt Q96PF2)", "assay": "kinase activity, inhibitor, radiometric", "conditions": "1 µM, together with: ATP at Km", "endpoint": "remaining activity", "result": "68%"}
{"SMILES": "O=C(NC1CCC1)c1ccc2nc(-c3cccc(NS(=O)(=O)NCCN4CCCCC4)c3)cn2c1", "target or system": "CDC42BPA", "assay": "enzyme activity", "conditions": "10 µM", "endpoint": "remaining activity", "result": "100%"}
{"SMILES": "Cn1cc(-c2ccc(-c3cncc(Cl)c3N3CCC4(CCNC4=O)CC3)cc2)cn1", "target or system": "COLO 205", "assay": "gene expression, microarray, refers to: HOXC6 mRNA", "conditions": "concentration not given, 6 h", "how to read": "baseline: untreated cells", "endpoint": "log2 fold change", "result": 2.51}
{"SMILES": "CNc1ncc2c(/C=C/C(=O)N3CCC(OC)CC3)nn(Cc3cccc(C(F)(F)F)c3)c2n1", "target or system": "CAMK2D (Homo sapiens, UniProt Q13557)", "assay": "kinase activity, inhibitor", "conditions": "1 µM", "how to read": "baseline: untreated control", "endpoint": "remaining activity", "result": "93%"}
{"SMILES": "CC(=O)Nc1c(N)nc(SCC(=O)N/N=C/c2ccc([N+](=O)[O-])cc2)[nH]c1=O", "target or system": "CDK2 with cyclin A2", "assay": "kinase activity", "conditions": "0.2 nM", "endpoint": "remaining activity", "result": "98.1%"}
{"SMILES": "C=CC(=O)N1CCC[C@@H](n2nc(-c3ccc(Oc4ccccc4)cc3)c3c(N)ncnc32)C1", "target or system": "SRMS", "assay": "kinase activity, inhibitor, HotSpot radiometric", "conditions": "100 nM, together with: ATP 10 µM", "endpoint": "remaining activity", "result": "28.9 ± 0.2%"}
{"SMILES": "COc1cc(N2CCN(C)CC2)ccc1Nc1nc(N)n(C(=O)NCc2c(Cl)cccc2Cl)n1", "target or system": "DCLK2", "assay": "enzyme activity", "conditions": "10 µM", "how to read": "baseline: control", "endpoint": "remaining activity", "result": "0.6%"}
{"SMILES": "CCOc1ccc(C(C)=O)cc1Cc1c(O)nc(N)nc1O", "target or system": "CDK2", "assay": "binding", "endpoint": "Kd", "result": "> 100 µM"}
{"SMILES": "Cc1ccc(NC(=O)c2ccc(C)c(C(F)(F)F)c2)cc1C#Cc1nn(C2CCC(O)CC2)c2ncnc(N)c12 (stereo not shown)", "target or system": "ERK2, human", "conditions": "10 µM, together with: 10 µM ATP", "endpoint": "remaining activity", "result": "87%"}
{"SMILES": "CC(=O)Nc1c(N)nc(SCC(=O)NN)[nH]c1=O", "target or system": "CDK2 with cyclin A2", "assay": "kinase activity", "conditions": "500 nM", "endpoint": "remaining activity", "result": "46.6%"}
{"SMILES": "NC/C(=C\\F)COc1cccc(Cn2c(=S)[nH]c(=O)c3[nH]cnc32)c1", "target or system": "Peroxidasin homolog (PXDN, Homo sapiens, UniProt Q92626)", "assay": "Amplex UltraRed", "conditions": "50 µM, mean of replicates", "how to read": "baseline: control", "endpoint": "remaining activity", "result": "10.2%"}
{"SMILES": "C=CC(=O)N1CCC[C@@H](n2nc(-c3ccc(Oc4ccccc4)cc3)c3c(N)ncnc32)C1", "target or system": "EPHA3 (Homo sapiens, UniProt P29320)", "conditions": "0.1 µM", "endpoint": "remaining activity", "result": "89.1%"}
{"SMILES": "CC(C)(C)c1nc(-c2cccc(NS(=O)(=O)c3c(F)cccc3F)c2F)c(-c2ccnc(N)n2)s1", "target or system": "Protein kinase C beta type, isoform beta-II (PRKCB, Homo sapiens, UniProt P05771)", "assay": "kinase activity, radiometric 33PanQinase", "conditions": "1 µM", "how to read": "baseline: DMSO", "endpoint": "remaining activity", "result": "84%"}
{"SMILES": "COc1cc(Nc2ncc3c(n2)-c2ccc(Cl)cc2C(c2c(F)cccc2OC)=NC3)ccc1C(=O)O", "target or system": "KDR", "assay": "kinase activity", "conditions": "1 µM", "endpoint": "remaining activity", "result": "65%"}
{"SMILES": "O=C1COc2ccc(-c3ccc(F)cc3F)cc2N1Cc1noc(C2CCC2)n1", "target or system": "UVRAG, with Beclin 1 (Homo sapiens, UniProt Q9P2Y5)", "assay": "UVRAG-Beclin1 interaction, NanoBRET", "test system": "HEK293T", "conditions": "100 µM, 24 h", "how to read": "baseline: DMSO", "endpoint": "remaining activity", "result": "100 ± 3.8%"}
{"SMILES": "COc1ccccc1NC(=O)CSc1nnc(-c2ccc([N+](=O)[O-])cc2)n1-c1ccccc1", "target or system": "CDK2", "assay": "binding", "endpoint": "Kd", "result": "> 100 µM"}
{"SMILES": "COc1cc(N2CCN(C)CC2)ccc1Nc1nc(N)n(C(=O)NCc2ccccc2S(=O)(=O)C(C)C)n1", "target or system": "IGF1R (Homo sapiens, UniProt P08069)", "assay": "enzyme activity", "conditions": "10 µM", "how to read": "baseline: control", "endpoint": "remaining activity", "result": "0.7%"}
{"SMILES": "O=C1NC(=O)/C(=C/c2ccc(-c3ccc(F)cc3O)o2)S1", "target or system": "PRKD1", "assay": "enzyme activity", "conditions": "10 µM", "endpoint": "remaining activity", "result": "55%"}
{"SMILES": "CC(C)OCCn1c(=S)[nH]c(=O)c2[nH]ccc21", "target or system": "Myeloperoxidase (MPO, Homo sapiens, UniProt P05164)", "assay": "LDL lipid peroxidation, inhibitor, cholesteryl ester hydroperoxide", "conditions": "0.1235 µM", "endpoint": "remaining activity", "result": "93.5%"}
{"SMILES": "CC#CC(=O)N1CCC[C@H]1c1nc(-c2ccc(C(=O)Nc3ccccn3)cc2)c2c(N)nccn12", "target or system": "PRKACB (Homo sapiens, UniProt P22694)", "assay": "kinase activity, inhibitor, HotSpot radiometric", "conditions": "100 nM, together with: ATP 10 µM", "endpoint": "remaining activity", "result": "101.7 ± 1%"}
{"SMILES": "CNC(=O)c1cc(Oc2ccc(NC(=O)Nc3ccc(Cl)c(C(F)(F)F)c3)cc2)ccn1", "target or system": "CDK2 with cyclin A2", "assay": "kinase activity, inhibitor, ADP-Glo kinase", "conditions": "5 nM", "endpoint": "remaining activity", "result": "72.4%"}
{"SMILES": "COc1cc(N2CCN(C)CC2)ccc1Nc1nc(N)n(C(=S)NCc2c(Cl)cccc2Cl)n1", "target or system": "EIF2AK4 (Homo sapiens, UniProt Q9P2K8, S808G)", "assay": "enzyme activity", "conditions": "10 µM", "how to read": "baseline: control", "endpoint": "remaining activity", "result": "0.6%"}
{"SMILES": "O=C(O)c1ccc(Nc2ncc3c(n2)-c2ccc(Cl)cc2C(c2c(F)cccc2F)=NC3)cc1", "target or system": "FGFR4(h)", "assay": "kinase activity", "conditions": "1 µM", "endpoint": "remaining activity", "result": "115%"}
{"SMILES": "Cc1cc(NC(=O)c2cccc(NC(=O)/C=C/CN(C)C)c2)ccc1Nc1nccc(-c2cccnc2)n1", "target or system": "MAPK9 (Homo sapiens, UniProt P45984)", "assay": "enzyme activity, inhibitor", "conditions": "0.02032 µM, unit not given", "how to read": "baseline: vehicle", "endpoint": "remaining activity", "result": 0.621}
{"SMILES": "CC(C)C[C@H](NC(=O)C[C@H](O)[C@H](CC(C)C)NC(=O)[C@H](Cc1c[nH]cn1)NC(=O)CNC(=O)[C@@H](NC(=O)[C@H](C)NC(=O)[C@H](Cc1c[nH]c2ccccc12)NC(=O)[C@H](CCC(N)=O)NC(=O)[C@@H](Cc1ccccc1)NC(=O)COCCOCCNC(=O)CCC(C(=O)O)N1CCN(CC(=O)O)CCN(CC(=O)O)CCN(CC(=O)O)CC1)C(C)C)C(N)=O (stereo partly shown) [lutetium-177 labelled]", "test system": "female BALB/c nu/nu mice, bone", "conditions": "intravenous, 50 pmol, 24 h", "endpoint": "tissue uptake", "result": "0.07 ± 0.07 %ID/g"}
{"SMILES": "O=C(c1ccc(F)cc1)C1CCN(CCn2c(=O)[nH]c3ccccc3c2=O)CC1", "target or system": "Diacylglycerol kinase zeta (Dgkz, Rattus norvegicus, UniProt O08560)", "assay": "kinase activity, inhibitor", "test system": "HEK293T cell lysate", "conditions": "50 µM, unit not given, together with: DAG liposomes, [γ32P]ATP", "how to read": "baseline: DMSO vehicle", "endpoint": "remaining activity", "result": 0.93}
{"SMILES": "COc1ccc(F)cc1C(=O)NCc1ccc(-c2nn([C@@H](C)C(F)(F)F)c(N)c2C(N)=O)cc1", "target or system": "RIPK3 (Homo sapiens, UniProt Q9Y572)", "assay": "kinase activity, inhibitor, HotSpot radiometric", "conditions": "1000 nM, together with: ATP at Km", "endpoint": "remaining activity", "result": "68.3 ± 1.9%"}
{"SMILES": "Cc1cc(Nc2cc(N3CCN(C)CC3)nc(Sc3ccc(NC(=O)C4CC4)cc3)n2)[nH]n1", "target or system": "DCLK2", "assay": "kinase activity, KinaseProfiler", "conditions": "0.03 µM, species human", "how to read": "baseline: control", "endpoint": "remaining activity", "result": "101%"}
{"SMILES": "C=CC(=O)N1CCC([C@@H]2CCNc3c(C(N)=O)c(-c4ccc(Oc5ccccc5)cc4)nn32)CC1", "target or system": "SRMS", "assay": "kinase activity, inhibitor, HotSpot radiometric", "conditions": "100 nM, together with: ATP 10 µM", "endpoint": "remaining activity", "result": "94.9%"}
{"SMILES": "COc1cc(F)ccc1-c1ncnc(Nc2cccc(C[S@](C)(=N)=O)c2)n1", "target or system": "CDC42BPA", "assay": "kinase activity", "conditions": "10 µM, together with: 10 µM ATP", "endpoint": "remaining activity", "result": "98%"}
